Results from different studies.
A part holds a random share of what one study measured.
UniProt Q9UJQ4, sequence (whole entry, looked up): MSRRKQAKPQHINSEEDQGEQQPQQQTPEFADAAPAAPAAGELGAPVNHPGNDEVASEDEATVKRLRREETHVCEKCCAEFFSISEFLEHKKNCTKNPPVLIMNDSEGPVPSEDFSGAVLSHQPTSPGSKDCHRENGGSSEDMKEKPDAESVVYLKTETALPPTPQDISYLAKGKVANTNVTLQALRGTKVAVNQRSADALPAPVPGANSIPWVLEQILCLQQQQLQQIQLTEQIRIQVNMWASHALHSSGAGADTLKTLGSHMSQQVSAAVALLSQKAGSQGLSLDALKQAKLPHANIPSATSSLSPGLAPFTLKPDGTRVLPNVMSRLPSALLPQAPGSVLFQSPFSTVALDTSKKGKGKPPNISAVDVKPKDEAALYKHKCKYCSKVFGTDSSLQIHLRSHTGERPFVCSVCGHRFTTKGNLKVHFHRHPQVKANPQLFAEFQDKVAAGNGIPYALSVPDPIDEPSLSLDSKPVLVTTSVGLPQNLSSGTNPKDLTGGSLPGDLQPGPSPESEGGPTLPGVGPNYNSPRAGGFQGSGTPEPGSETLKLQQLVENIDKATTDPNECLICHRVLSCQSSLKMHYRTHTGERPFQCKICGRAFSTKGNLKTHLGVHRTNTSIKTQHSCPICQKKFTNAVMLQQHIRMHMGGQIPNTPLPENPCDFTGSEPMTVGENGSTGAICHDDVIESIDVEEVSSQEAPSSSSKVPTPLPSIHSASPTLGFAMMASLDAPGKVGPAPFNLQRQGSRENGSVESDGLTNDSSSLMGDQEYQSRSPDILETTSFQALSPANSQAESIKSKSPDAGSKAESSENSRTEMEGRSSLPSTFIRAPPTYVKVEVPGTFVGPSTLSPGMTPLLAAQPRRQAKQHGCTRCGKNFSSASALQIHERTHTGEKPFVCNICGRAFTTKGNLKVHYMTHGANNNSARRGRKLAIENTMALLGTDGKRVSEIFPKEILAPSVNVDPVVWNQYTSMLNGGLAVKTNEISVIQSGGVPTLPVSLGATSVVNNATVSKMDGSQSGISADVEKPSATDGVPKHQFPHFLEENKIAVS

Set 1 — technique: protein-binding microarray; molecule type: double-stranded DNA, one strand shown; matrix: in vitro; tested at: not given; reading: higher = stronger binding
Target: Myc proto-oncogene protein, bHLH-zipper, MAX partner unstated (MYC, Homo sapiens, UniProt P01106, residues 368-449)
UniProt P01106, sequence (368-449, looked up): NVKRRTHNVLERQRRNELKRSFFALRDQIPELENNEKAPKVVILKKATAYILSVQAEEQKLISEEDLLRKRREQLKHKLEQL
Notes: k-mer, scored over probes, only values ≥0.25
| Strand | E-score |
| --- | --- |
| ACCCACGA | 0.328 |
| CCATGCGC | 0.435 |
| CACGCGCC | 0.455 |

Set 2 — technique: protein-binding microarray; molecule type: double-stranded DNA, one strand shown; matrix: in vitro; tested at: 0.8 µM; notes: whole 60-bp probe, no competitor; reading: higher = stronger binding
Target: Centromere-binding protein 1, full length, N-terminal tag (CBF1, Saccharomyces cerevisiae, UniProt P17106, residues 1-351)
UniProt P17106, sequence (whole entry, looked up): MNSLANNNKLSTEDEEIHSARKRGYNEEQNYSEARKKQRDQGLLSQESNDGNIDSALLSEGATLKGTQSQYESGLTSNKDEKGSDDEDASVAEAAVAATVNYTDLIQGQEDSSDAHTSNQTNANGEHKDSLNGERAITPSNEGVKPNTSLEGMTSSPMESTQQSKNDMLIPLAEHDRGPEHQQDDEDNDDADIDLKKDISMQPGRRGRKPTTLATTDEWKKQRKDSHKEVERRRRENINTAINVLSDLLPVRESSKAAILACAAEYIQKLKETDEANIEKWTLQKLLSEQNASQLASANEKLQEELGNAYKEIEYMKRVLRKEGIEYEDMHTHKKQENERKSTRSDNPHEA
| Strand | fluorescence intensity [a.u.] |
| --- | --- |
| CTATTGAGTCATGGGCACGTCACCGCACAACAGTTCGTCTTGATTCGCTTGACGCTGCTG | 668 |
| CTATTCATTAATCGCCACCTGATGTTTTTCGCTTTCGTCTTGATTCGCTTGACGCTGCTG | 829 |
| GAAAGCGTCAAGAATAACGTGCATTTAATTTTTTAGGTCTTGATTCGCTTGACGCTGCTG | 702 |

Single results of other studies
RBFOX2 RRM domain, GST-SBP tag: RNA binding protein fox-1 homolog 2, RRM domain, GST-SBP tag (RBFOX2, Homo sapiens, UniProt O43251-10, residues 100-194)
| Molecule | target | assay | system | setting | how to read | measurement | value |
| --- | --- | --- | --- | --- | --- | --- | --- |
| GGGAGUUCUACAGUCCGACGAUCGCAACCACUGCCCAUUCUUCUAAUCCCUCACAAUACGUGAUUCAGACCCUGAGCCUGGUCCACAGUGACUGGGAAAAGGCAUUAACACAAAACAAAAGAGAUGGGGGGAGUGGAAUUCUCGGGUGCCAA | RBFOX2 RRM domain, GST-SBP tag | RNA Bind-n-Seq | RNA, in vitro | 365 nM, natural RNA segment, single round, ends assumed | baseline: no-protein control, higher = stronger binding | RBNS enrichment (R) | 0.329 |
| PhoQ, residues 284 288 289 292 302 303 SACGEM | PhoP, residues 12 14 15 18 19 AQALL (Escherichia coli, UniProt P23836) | Sort-seq, refers to: YFP reporter | E. coli | PhoQ-PhoP variant library, with: 10 µM Mg2+ | baseline: high Mg2+ state, higher = stronger signaling | fold induction | 2.09 |
| GGGAGUUCUACAGUCCGACGAUCACUCCUUUUCCUGUCCCGUUUCCAGUCCCACUGAGCCAUUCACUUCUGCUGAACCAUUUUUCUUAGGAUGCAGCCGUCUCACUCCCUUGUCCUGUAAAUCGUGUAUUCAUUGGAAUUCUCGGGUGCCAA | RBFOX2 RRM domain, GST-SBP tag | RNA Bind-n-Seq | RNA, in vitro | 365 nM, natural RNA segment, single round, ends assumed | baseline: no-protein control, higher = stronger binding | RBNS enrichment (R) | 0.798 |
| GACTTTTA | Sal-like protein 4, full length isoform A (SALL4, Homo sapiens, UniProt Q9UJQ4, residues 1-1053) | universal PBM | double-stranded DNA, one strand shown, in vitro | 600 nM, 8-mer, flanks averaged, mean of replicates | higher = stronger binding | E-score | 0.109 |

For quick reference, copied from above (set 2):
| Strand | fluorescence intensity [a.u.] |
| --- | --- |
| CTATTGAGTCATGGGCACGTCACCGCACAACAGTTCGTCTTGATTCGCTTGACGCTGCTG | 668 |
| CTATTCATTAATCGCCACCTGATGTTTTTCGCTTTCGTCTTGATTCGCTTGACGCTGCTG | 829 |
